Assay results from different studies.
Each numbered part is a random draw from the data of one study; scales do not carry over between parts.

Set 1
Target: Prothrombin, mature alpha-thrombin (F2, Homo sapiens, UniProt P00734)
Method: aptamer microarray, sandwich
Molecule type: DNA with 2'F-ANA
Medium: in vitro
Concentration: 200 nM
Notes: whole 15-mer aptamer, many near background
Added: Cy3 exosite-II aptamer, 400 nM
Direction: higher = stronger binding
Sequence | mean fluorescence intensity
GGTTGGTGTGGTTGG (2'F-ANA at 1 4 6 9 10 13) | 49.1 a.u.
GGTTGGTGTGGTTGG (2'F-ANA at 1 5 6 7 8 10 12 13 14) | 50.1 a.u.
GGTTGGTGTGGTTGG (2'F-ANA at 4 8 10) | 91 a.u.
GGTTGGTGTGGTTGG (2'F-ANA at 4 10 12 15) | 117 a.u.

Set 2
Target: Ras GTPase-activating protein-binding protein 1, full length (G3BP1, Homo sapiens, UniProt Q13283)
UniProt Q13283, sequence (whole entry, looked up): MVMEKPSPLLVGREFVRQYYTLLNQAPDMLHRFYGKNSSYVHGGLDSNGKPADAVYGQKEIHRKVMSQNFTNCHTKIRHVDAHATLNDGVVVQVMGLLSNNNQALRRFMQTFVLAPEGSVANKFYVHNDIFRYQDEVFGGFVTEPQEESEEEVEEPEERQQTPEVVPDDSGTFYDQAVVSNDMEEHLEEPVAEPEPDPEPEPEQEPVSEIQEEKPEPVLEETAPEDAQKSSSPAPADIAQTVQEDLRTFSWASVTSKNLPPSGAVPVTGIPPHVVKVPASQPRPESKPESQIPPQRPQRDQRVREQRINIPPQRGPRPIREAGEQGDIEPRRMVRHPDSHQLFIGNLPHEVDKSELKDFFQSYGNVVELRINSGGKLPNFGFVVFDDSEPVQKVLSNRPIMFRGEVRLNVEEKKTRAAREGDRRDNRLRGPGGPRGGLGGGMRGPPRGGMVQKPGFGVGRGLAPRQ
Method: RNA Bind-n-Seq
Molecule type: RNA
Medium: in vitro
Concentration: 200 nM
Notes: whole 134-nt RNA, ends assumed
Added: 150 mM KCl
Relative to: input library
Direction: higher = stronger binding
Sequence | log2 enrichment
GGGAGUUCUACAGUCCGACGAUCAGUCCUGUGCUACACAUCGUAUGUACCGAAUCGGUUUUUGGUUUUUGGUUUUUGGGGAAAGUAUUAUGUUACGCCGUUCGGAUCUGCACUUGGAAUUCUCGGGUGUCAAGG | -1.16
GGGAGUUCUACAGUCCGACGAUCCACAGACAACACGCACACACACAGACACAGAGGGAAGGGGUUGGGAUGGGGACAGGGUGCACAGCAGGGCGGGGUAGGACCCCAGCCCCUUGGAAUUCUCGGGUGUCAAGG | 1.08
GGGAGUUCUACAGUCCGACGAUCCCUCAAGUCCUGUGCUACACAUCGUAUGUACCGAAUCGGGGUGGGUGGGUGGAAAGUAUUAUGUUACGCCGUUCGGAUCUGCACUUCCAGUGGAAUUCUCGGGUGUCAAGG | 1.51
GGGAGUUCUACAGUCCGACGAUCAGUCCUGUGCUACACAUCGUAUGUACCGAAUCGGGUUUUUUUGGGAGGGUUUUUGGGAAAGUAUUAUGUUACGCCGUUCGGAUCUGCACUUGGAAUUCUCGGGUGUCAAGG | -0.141

Set 3
Target: PABPC1L2, full length, GST fusion (mouse, UniProt A0ABA7IW68)
Method: RNAcompete
Molecule type: RNA
Medium: in vitro
Concentration: 20 nM
Notes: 7-mer, probes averaged, single round
Relative to: mean of 7-mers
Direction: higher = stronger binding
Target sequence (chain): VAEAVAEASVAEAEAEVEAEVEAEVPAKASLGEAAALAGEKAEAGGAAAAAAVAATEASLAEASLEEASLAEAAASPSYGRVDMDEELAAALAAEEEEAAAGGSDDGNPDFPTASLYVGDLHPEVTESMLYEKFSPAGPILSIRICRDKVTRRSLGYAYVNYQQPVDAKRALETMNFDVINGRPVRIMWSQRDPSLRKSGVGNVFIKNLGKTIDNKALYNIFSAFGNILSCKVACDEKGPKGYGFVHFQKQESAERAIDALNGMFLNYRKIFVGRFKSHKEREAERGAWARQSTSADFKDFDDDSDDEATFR
Sequence | 7-mer Z-score
ACUACGA | -0.079
UCAAUAG | -0.182
AGCUAGU | -0.233
CUUGUCU | -0.371
GUGGGCC | -0.0355

Mixed results
Substance | target | test | system | conditions | how to read | measurement | result
PhoQ, residues 284 288 289 292 302 303 TTSMTC | PhoP, residues 12 14 15 18 19 AQALL (Escherichia coli, UniProt P23836) | Sort-seq, item: YFP reporter | E. coli | PhoQ-PhoP variant library, added: 10 µM Mg2+ | relative to: high Mg2+ state, higher = stronger signaling | fold induction | 13.1

Excerpt of the above (set 1):
Sequence | mean fluorescence intensity
GGTTGGTGTGGTTGG (2'F-ANA at 4 10 12 15) | 117 a.u.
GGTTGGTGTGGTTGG (2'F-ANA at 1 4 6 9 10 13) | 49.1 a.u.
